Experimental data of several laboratories.
“And” joins repeats or separate records; there may be more than shown. ± gives the spread as reported.

Compound	tested on	test	system	conditions	scale	endpoint	result
COC1OC(C)C(O)C(OC2OC(C)C(O)C(OC3OC(C)C(O)C(OC4OC(C)C(O)C(OC5OC(C)C(O)C(OC6OC(C)C(O)C(OC7OC(C)C(O)C(OC8OC(C)C(O)C(OC9OC(C)C(O)C(OC%10OC(C)C(O)C(OC%11OC(C)C(O)C(OC%12OC(C)C(O)C(OS(=O)(=O)O)C%12OS(=O)(=O)O)C%11OS(=O)(=O)O)C%10OS(=O)(=O)O)C9OS(=O)(=O)O)C8OS(=O)(=O)O)C7OS(=O)(=O)O)C6OS(=O)(=O)O)C5OS(=O)(=O)O)C4OS(=O)(=O)O)C3OS(=O)(=O)O)C2OS(=O)(=O)O)C1OS(=O)(=O)O (stereo not drawn)			human plasma	128 µg/mL	relative to: control	APTT prolongation	1.4 fold
Oc1cc2c(cc1O)C(c1cccc3[nH]ccc13)NCC2 (stereo not drawn)		ferrozine	cell-free	100 µM, DMSO solvent		Fe2+ chelation	96.24 ± 0.32%
COc1ccc(NC(=O)c2ccc3[nH]c(-c4ccc(N(C)C)cc4)nc3c2)cn1			Lewis lung carcinoma, mice, syngeneic graft, subcutaneous	intraperitoneal, 50 mg/kg daily, day 10		tumour volume	393 mm3 and 406 mm3 and 528 mm3 and 321 mm3
CC(=O)[O-].O.[Cu+2].[O-]c1ccc(Br)cc1C=NCCN1CCOCC1		hydroxyl radical scavenging		120 µM		inhibition	33.4%
CCCCCCC(CSS(=O)(=O)O)NCC(C)C (stereo not drawn)			Swiss Webster mice, Schistosoma mansoni-infected	100 mg/kg, perfusion day 62 post-infection		spleen weight	0.7 g
N[C@@H](CNC(=O)N[C@@H](CS)C(=O)NCC(=O)O)C(=O)O			mouse C57BL/6, brain	intranasal, dose not given	relative to: saline i.c.v.	GFAP immunoreactivity	decreased
COC1CN([C@H]2CC[C@H]([C@@]3(C)Oc4c(Cl)cc(C(=O)NCc5c(SC)cc(C)[nH]c5=O)c(C)c4O3)CC2)C1		RNA-seq, refers to: CHST2	human, whole blood	dose not given, 24 h	relative to: pretreatment baseline	log2 fold change	1.66
COc1ccc2c(c1)C(=O)C(=C[O-])C2.[Na+]		HPLC-MS		pH 10.2, added: 50 mM N-α-acetyl-lysine		pseudo-first-order rate constant	0 h⁻¹
O=[N+]([O-])c1cc(Br)cc([N+](=O)[O-])c1NS(=O)(=O)c1ccc(Br)cc1		RNA-seq, refers to: AT1G02930	Arabidopsis thaliana Col seedlings	dose not given	relative to: DMSO	log2 fold change	2.42
CN1CCCNC(=O)c2cccc(c2)C(=O)NCCCN(C)CCCNc2cccc3c2C(=O)c2cccc(c2C3=O)NCCC1	SAS	RNA-Seq, refers to: HNRNPDL mRNA		1 µM, 6 h	relative to: untreated cells	log2 fold change	0.643
Nc1nc2cnc(C(=O)N3CCOC[C@@H]3c3ccc(C(F)(F)F)cc3)cc2c2c1COC2		ELISA, refers to: SDMA	mouse, HCT-116 MTAP wild type xenograft, tumour	oral, 3 mg/kg once daily	relative to: vehicle	inhibition	26%
COC1OC(C)C(O)C(OC2OC(C)C(O)C(OC3OC(C)C(O)C(OC4OC(C)C(O)C(OS(=O)(=O)O)C4OS(=O)(=O)O)C3OS(=O)(=O)O)C2OS(=O)(=O)O)C1OS(=O)(=O)O (stereo not drawn)			human plasma	128 µg/mL	relative to: control	APTT prolongation	1.1 fold
COc1ccc(S(=O)(=O)N2CCc3ccccc3C2)cc1N1CCN(C(=O)c2ccc(F)cc2C(F)(F)F)CC1		stereology, optical fractionator, refers to: tyrosine hydroxylase	rat, 6-OHDA lesion model, substantia nigra pars compacta, intact side	0.3 µg/24 h		TH-immunoreactive cell number	395 ± 40.5
O=Cc1c(O)c(C=O)c(O)c(C=O)c1O		HPLC-MS		pH 10.2, added: 50 mM N-α-acetyl-lysine		pseudo-first-order rate constant	15.8 h⁻¹
CNS(=O)(=O)Nc1nccc(Cc2c(C)c3ccc(Oc4ncccc4F)cc3oc2=O)c1F	FaDu	cell viability		7 days		IC50	1.8 nM
Cc1ncsc1-c1ccc(C(C)NC(=O)C2CC(O)CN2C(=O)C(NC(=O)CCCCCCCCCCN2CCCC(Nc3ncc(Cl)c(Nc4ccccc4S(=O)(=O)C(C)C)n3)C2)C(C)(C)C)cc1 (stereo not drawn)	22Rv1	RNA-seq, refers to: RFX3 mRNA		concentration not given	relative to: DMSO	log2 fold change	-2.52
CCCCCCCCCCCCCCCC(=O)OCC(CSC[C@H](N)C(=O)N[C@@H](CO)C(=O)N[C@@H](CCCCN)C(=O)N[C@@H](CCCCN)C(=O)N[C@@H](CCCCN)C(=O)N[C@@H](CCCCN)C(=O)NCCCCCC(=O)N[C@@H](CCCCN)C(=O)N[C@@H](CC(C)C)C(=O)N[C@H](C(=O)N[C@@H](Cc1ccccc1)C(=O)N[C@@H](Cc1ccccc1)C(=O)N[C@@H](Cc1ccc2ccccc2c1)C(=O)O)C(C)C)OC(=O)CCCCCCCCCCCCCCC (stereo partly drawn)			APP/PS1 mouse, hippocampus	local injection, dose not given, unit not given	relative to: injected over adjacent side	GFAP level	0.707 and 1.11 and 1.23
COc1ccccc1C1NCCc2cc(O)c(O)cc21 (stereo not drawn)		ferrozine	cell-free	100 µM, DMSO solvent		Fe2+ chelation	94.78 ± 0.33%

Compound	tested on	test	system	conditions	scale	endpoint	result
COCCOCCOCCNC(=O)Cc1cc(CC(=O)N[C@H]2C[C@H]3C(=O)Nc4cc(OCCOCCOCCOC)cc(n4)C(=O)N4CCC[C@H]4C(=O)Nc4cc(OCCOCCOCCOC)cc(n4)C(=O)N4CCC[C@H]4C(=O)Nc4cc(OCCOCCOCCOC)cc(n4)C(=O)N3C2)cc(CC(=O)N[C@H]2C[C@H]3C(=O)Nc4cc(OCCOCCOCCOC)cc(n4)C(=O)N4CCC[C@H]4C(=O)Nc4cc(OCCOCCOCCOC)cc(n4)C(=O)N4CCC[C@H]4C(=O)Nc4cc(OCCOCCOCCOC)cc(n4)C(=O)N3C2)c1		anion binding, ITC	water/methanol 95 vol% (97.7 mol%)	298 K, added: sodium sulfate		ΔG	-4.947 ± 0.0478 kcal/mol
CC(C)[C@H](NC(=O)[C@H](Cc1ccccc1)NC(=O)[C@H](Cc1ccccc1)NC(=O)OCC1c2ccccc2-c2ccccc21)C(=O)N[C@@H](CCC(=O)O)C(=O)N[C@@H](CCC(=O)O)C(N)=O		refers to: erythrocytes and leukocytes	mouse, blood	dose not given, 4 h	relative to: PBS	peripheral blood cell counts	no effect
Nc1ncc(-c2cc(-c3cnn(CC(F)(F)F)c3)ncc2F)nc1C(=O)NC1CNCC(F)C1 (stereo not drawn)	LIMK2	KINOMEscan		1 µM	relative to: DMSO control	remaining binding	81%
CCC(=O)N[C@@H](C)C(=O)OCC(=O)N[C@@H](C)C(=O)O			water	pH 6, 25 °C		chain scission rate constant	0.0009 h⁻¹
C=CC(=O)N1CC2C(=O)N(CCN(C)C)c3c(c4cc(Cl)c(-c5c(O)cccc5F)nc4n(-c4c(C)ccnc4C(C)C)c3=O)N2CC1C (stereo not drawn)		ELISA	BALB/c nude mouse, H358 xenograft, tumour	10 mg/kg	relative to: vehicle	active RAS level	decreased
CC(C)[C@H](NC(=O)[C@H](CC(=O)O)NC(=O)[C@@H](NC(=O)[C@H](Cc1c[nH]c2ccccc12)NC(=O)[C@H](CCC(=O)O)NC(=O)[C@H](C)NC(=O)[C@H](CC(=O)O)NC(=O)CNC(=O)[C@H](Cc1ccc(O)cc1)NC(=O)[C@H](Cc1ccc(OP(=O)(O)O)cc1)NC(=O)[C@H](Cc1ccc(O)cc1)NC(=O)CCNC(=O)c1ccc(C(=O)[O-])c(-c2c3ccc(=[N+](C)C)cc-3oc3cc(N(C)C)ccc23)c1)C(C)C)C(=O)N[C@@H](CO)C(=O)O		immunohistochemistry	ApoE-/- mice, aortic sinus sections	dose not given, 21 days		CD68-positive area	19.7 ± 6.64%
COC1OC(C)C(OS(=O)(=O)O)C(OC2OC(C)C(OS(=O)(=O)O)C(OC3OC(C)C(OS(=O)(=O)O)C(OC4OC(C)C(OS(=O)(=O)O)C(OC5OC(C)C(OS(=O)(=O)O)C(OC6OC(C)C(OS(=O)(=O)O)C(OC7OC(C)C(OS(=O)(=O)O)C(OS(=O)(=O)O)C7O)C6O)C5O)C4O)C3O)C2O)C1O (stereo not drawn)			human plasma	128 µg/mL	relative to: control	APTT prolongation	1.2 fold
COc1ccccc1-c1ccncc1C(=O)Nc1nnc(OCc2ccc(Cl)cc2)s1			Brca1 Δ11/Δ11 MEF sgGFP, Mus musculus	20 µM, mean of runs 2, 3	relative to: 0 µM	colony survival	15.1%
COC1OC(C)C(OS(=O)(=O)O)C(OC2OC(C)C(OS(=O)(=O)O)C(OC3OC(C)C(OS(=O)(=O)O)C(OC4OC(C)C(OS(=O)(=O)O)C(OC5OC(C)C(OS(=O)(=O)O)C(OC6OC(C)C(OS(=O)(=O)O)C(OC7OC(C)C(OS(=O)(=O)O)C(OC8OC(C)C(OS(=O)(=O)O)C(OC9OC(C)C(OS(=O)(=O)O)C(OC%10OC(C)C(OS(=O)(=O)O)C(OC%11OC(C)C(OS(=O)(=O)O)C(OC%12OC(C)C(OS(=O)(=O)O)C(OS(=O)(=O)O)C%12O)C%11O)C%10O)C9O)C8O)C7O)C6O)C5O)C4O)C3O)C2O)C1O (stereo not drawn)			human plasma	128 µg/mL	relative to: control	APTT prolongation	1.4 fold
C#CC(C)(C)C(=O)SCCOP1(=O)OCC2OC(n3cnc4c(N)ncnc43)CC2OP(=O)(OCCSC(=O)C(C)(C)C#C)OCC2OC(n3cnc4c(N)ncnc43)CC2O1 (stereo not drawn)		flow cytometry	mouse CT26 tumour model, tumour tissue	dose not given		M1 macrophages	70%
COc1cc2c(NC3CCN(C(C)C)CC3)cc(N3CCOCC3)nc2cc1OCCCN1CCCC1		TMT proteomics, refers to: PPIA	5xFAD mice, hippocampus	dose not given	relative to: wild-type mice	log2 fold change	-0.0155
CC(C)OC(=O)[C@H](CO)NCc1cc(Cl)c(OCc2cccc(-c3ccccc3)c2Br)cc1OCc1cccnc1			hPD-L1 MC-38 tumour, humanised hPD-1 C57BL/6 mouse	oral, 5 mg/kg × 21		tumour weight	1.55 ± 0.58 g
COc1cc(O)ccc1CCC(c1ccc(O)cc1)c1cc2c(c(C)c1O)OC(c1ccc(O)cc1)CC2 (mixture of isomers)		refers to: 7-HDHA	human whole blood	0.3 µM, added: Escherichia coli		amount	41 ± 14 pg/mL blood
CC(C)(C)NCC(SS(=O)(=O)O)c1ccccc1 (stereo not drawn)			Swiss Webster mice, Schistosoma mansoni-infected	400 mg/kg single dose on day 42 post-infection, perfusion day 56 post-infection		spleen weight	0.72 g
COC1OC(C)C(OS(=O)(=O)O)C(OC2OC(C)C(OS(=O)(=O)O)C(OC3OC(C)C(OS(=O)(=O)O)C(OC4OC(C)C(OS(=O)(=O)O)C(OC5OC(C)C(OS(=O)(=O)O)C(OC6OC(C)C(OS(=O)(=O)O)C(OC7OC(C)C(OS(=O)(=O)O)C(OC8OC(C)C(OS(=O)(=O)O)C(OS(=O)(=O)O)C8O)C7O)C6O)C5O)C4O)C3O)C2O)C1O (stereo not drawn)			human plasma	128 µg/mL	relative to: control	APTT prolongation	1.2 fold
CN1CCC[C@]1(C)/C=C/S(=O)(=O)NC(=O)Nc1c2c(cc3c1CCC3)CCC2			human, whole blood ex vivo	50 mg twice daily, day 14, 6 h, multiple ascending dose, added: LPS and ATP		IL-18 inhibition	99.8%
COC1OC(C)C(O)C(OC2OC(C)C(O)C(OC3OC(C)C(O)C(OC4OC(C)C(O)C(OC5OC(C)C(O)C(OC6OC(C)C(O)C(OC7OC(C)C(O)C(OC8OC(C)C(O)C(OC9OC(C)C(O)C(OC%10OC(C)C(O)C(OS(=O)(=O)O)C%10OS(=O)(=O)O)C9OS(=O)(=O)O)C8OS(=O)(=O)O)C7OS(=O)(=O)O)C6OS(=O)(=O)O)C5OS(=O)(=O)O)C4OS(=O)(=O)O)C3OS(=O)(=O)O)C2OS(=O)(=O)O)C1OS(=O)(=O)O (stereo not drawn)			human plasma	128 µg/mL	relative to: control	APTT prolongation	1.4 fold
CCC(CC)n1c(Cc2cccs2)nc2cc(C(=O)NC(CC(=O)O)CC(C)C)ccc21 (stereo not drawn)			mouse, HFpEF model (HFD plus L-NAME)	ip, 20 mg/kg/day, 2 wk		body weight	decreased

For quick reference, copied from above:
Compound	tested on	test	system	conditions	scale	endpoint	result
COC1CN([C@H]2CC[C@H]([C@@]3(C)Oc4c(Cl)cc(C(=O)NCc5c(SC)cc(C)[nH]c5=O)c(C)c4O3)CC2)C1		RNA-seq, refers to: CHST2	human, whole blood	dose not given, 24 h	relative to: pretreatment baseline	log2 fold change	1.66
COc1ccccc1C1NCCc2cc(O)c(O)cc21 (stereo not drawn)		ferrozine	cell-free	100 µM, DMSO solvent		Fe2+ chelation	94.78 ± 0.33%
CC(C)[C@H](NC(=O)[C@H](CC(=O)O)NC(=O)[C@@H](NC(=O)[C@H](Cc1c[nH]c2ccccc12)NC(=O)[C@H](CCC(=O)O)NC(=O)[C@H](C)NC(=O)[C@H](CC(=O)O)NC(=O)CNC(=O)[C@H](Cc1ccc(O)cc1)NC(=O)[C@H](Cc1ccc(OP(=O)(O)O)cc1)NC(=O)[C@H](Cc1ccc(O)cc1)NC(=O)CCNC(=O)c1ccc(C(=O)[O-])c(-c2c3ccc(=[N+](C)C)cc-3oc3cc(N(C)C)ccc23)c1)C(C)C)C(=O)N[C@@H](CO)C(=O)O		immunohistochemistry	ApoE-/- mice, aortic sinus sections	dose not given, 21 days		CD68-positive area	19.7 ± 6.64%
